Experimental data pooled from the literature.
A part holds a random share of what one study measured.

Series 1
Target: PABPC1L2, full length, GST fusion (mouse, UniProt A0ABA7IW68)
Technique: RNAcompete
Form: RNA
Sample: in vitro
Tested at: 20 nM
Notes: 7-mer, probes averaged, single round
Baseline: mean of 7-mers
Reading: higher = stronger binding
Quantity: 7-mer Z-score
Construct (chain): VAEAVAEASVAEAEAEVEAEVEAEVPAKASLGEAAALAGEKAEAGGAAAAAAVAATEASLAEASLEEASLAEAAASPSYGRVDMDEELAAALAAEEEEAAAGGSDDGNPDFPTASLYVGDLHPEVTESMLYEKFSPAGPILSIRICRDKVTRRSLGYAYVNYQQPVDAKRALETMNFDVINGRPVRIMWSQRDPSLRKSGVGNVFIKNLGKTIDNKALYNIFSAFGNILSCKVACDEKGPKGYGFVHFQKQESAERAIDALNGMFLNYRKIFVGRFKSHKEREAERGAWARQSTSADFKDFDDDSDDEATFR
UUGCGUU: -0.382
UCCCGCA: -0.302
CCAGAUA: -0.0156
UCUAUCG: -0.262
UGGCCGU: -0.171
CUGAGUU: -0.293
UGGGGUC: 0.046
UGUGCGU: -0.242

Series 2
Target: Replicase polyprotein 1ab, polymerase (rep, Severe acute respiratory syndrome coronavirus 2, UniProt P0DTD1)
Effect on: enzyme activity
Action: inhibitor
Tested at: 20 µM
Quantity: inhibition
O=Nc1c(O)[nH]c2c(Cl)c(Cl)ccc12: -1.12%
Cc1c(NC(=O)c2cc3c(s2)CCCC3)cccc1-c1cn(C)c(=O)c(Nc2ccc([C@@H]3C(=O)N(C)CCN3C)cc2)n1 (racemic): -2.14%
N#Cc1ncccn1: 1.04%
N=C(N)NCCCC[C@@H]1NC(=O)CCSSC[C@@H](C(N)=O)NC(=O)[C@@H]2CCCN2C(=O)[C@H](Cc2c[nH]c3ccccc23)NC(=O)[C@H](CC(=O)O)NC(=O)CNC1=O: -6.61%
CCn1c(-c2nonc2N)nc2cnc(Oc3cccc(NC(=O)c4ccc(OCCN5CCOCC5)cc4)c3)cc21: 5.36%
CCCCC[C@H](O)/C=C/[C@H]1[C@H](O)CC(=O)[C@@H]1CCCCCCC(=O)O: -3.27%
Cc1c(NC(=O)OC[C@@H]2COCCN2)cn2ncnc(Nc3ccc4c(cnn4Cc4cccc(F)c4)c3)c12: 2.82%
O=C1NC(=S)NC(=O)C1C(=O)Nc1ccccc1: 4.53%
O=C(Nc1cccc2c(=O)cc(-c3nnn[nH]3)oc12)c1ccc(OCCCCc2ccccc2)cc1: -4.88%
CNC[C@H](O)[C@@H](O)[C@H](O)[C@H](O)CO: 1.24%
O[C@H]1[C@H](O)[C@@H](O)CN2CC[C@H](O)[C@H]12: 0.78%
Cc1ccc(Cl)c(OCC(O)CNC(C)(C)C)c1 (stereo not drawn): 2.49%
CN(C)CCNc1nc2cc(O)ccc2c2c1C(=O)c1ccccc1-2: 68.6%
CCC1=C[C@@H]2CN3CCc4c([nH]c5ccccc45)[C@@](C(=O)OC)(C2)[C@@H]13: -2.17%
CC[N+](C)(CC)CCOC(=O)C1c2ccccc2Oc2ccccc21: -6.23%
CCC1(C)CC(=O)NC(=O)C1: 1.05%
NC(=O)[C@@H](CCC(F)(F)F)N(Cc1ccc(-c2ncon2)cc1F)S(=O)(=O)c1ccc(Cl)cc1: 3.97%
COc1ccc(-n2nc(CCC(=O)N(C)O)cc2-c2ccc(Cl)cc2)cc1: 3.11%
C#CCOC(=O)C1=CCCN(C)C1: -0.38%
Fc1ccc2nc(CCC#Cc3ccccn3)cn2c1: 2.81%
O=C(NC(=O)c1c(F)cccc1Cl)NC1c2ccccc2-c2ccccc21: -1.66%
C=CCN(C)CCCCCCOc1ccc(C(=O)c2ccc(Br)cc2)c(F)c1: -5.49%
O=C(O)c1cc(O)c(O)c(O)c1: -3.6%
CCN(CC)CCOc1ccccc1C(=O)CCc1ccccc1: 4.9%
O=C(COc1cccc2c(=O)[nH]ccc12)c1ccccc1: 3.58%

Series 3
Target: Histone acetyltransferase KAT6A, both winged helices, GST fusion (KAT6A, Homo sapiens, UniProt Q92794, residues 1-181)
Technique: protein binding microarray
Form: double-stranded DNA, one strand shown
Sample: in vitro
Tested at: not given
Notes: 8-mer, flanks averaged, mean of 2 arrays, mostly near background
Baseline: not given
Reading: higher = stronger binding
Quantity: E-score
Target sequence (chain): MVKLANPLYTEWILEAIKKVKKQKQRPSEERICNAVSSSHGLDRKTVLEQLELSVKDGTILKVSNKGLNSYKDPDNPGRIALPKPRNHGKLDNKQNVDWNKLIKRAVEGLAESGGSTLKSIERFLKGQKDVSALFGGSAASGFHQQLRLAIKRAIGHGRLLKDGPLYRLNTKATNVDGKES
GGTCAAGA: -0.21
ACGCAGCC: 0.0438
GGCTTCAC: 0.0772
AATTTTGA: -0.0736
AATTGCGC: 0.317
TACCGCAA: 0.188
CGAGAAAG: 0.0079
GACAGCAA: -0.147

Series 4
Organism: Vesicular stomatitis virus
Effect on: pseudovirus infection
Tested at: concentration not given
Notes: SARS-CoV-2 spike pseudotype
Quantity: GFP signal
Brc1c(NC2=NCCN2)ccc2nccnc12.O=C(O)C(O)C(O)C(=O)O: 100%
O.O.O.O.O=C([O-])CC(O)(CC(=O)[O-])C(=O)[O-].[Li+].[Li+].[Li+]: 103%
CC(C)OC(=O)[C@H](C)N[P@](=O)(CO[C@H](C)Cn1cnc2c(N)ncnc21)Oc1ccccc1: 85%
O=C([O-])CN(CCN(CC(=O)[O-])CC(=O)O)CC(=O)[O-].[Na+].[Na+].[Na+]: 83.1%

Series 5
Target: RNA binding protein fox-1 homolog 2, RRM domain, GST-SBP tag (RBFOX2, Homo sapiens, UniProt O43251-10, residues 100-194)
Technique: RNA Bind-n-Seq
Form: RNA
Sample: in vitro
Tested at: 365 nM
Notes: natural RNA segment, single round, ends assumed
Baseline: no-protein control
Reading: higher = stronger binding
Quantity: RBNS enrichment (R)
All sequences stand within: GGGAGUUCUACAGUCCGACGAUC … UGGAAUUCUCGGGUGCCAA
Construct (chain): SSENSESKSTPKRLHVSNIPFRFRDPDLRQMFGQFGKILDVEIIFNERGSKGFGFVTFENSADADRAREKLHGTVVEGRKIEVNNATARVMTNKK
GGAGCAGCAGGCCUGGGGCAAGGAAGGAAGGGGGUGCACACAGGAGAAGAAACAUUCCAAAAUCAGGGCCUCCCUGUUCUUUCCUCCCCAUCCCUAGCUCCUGCAAGAGA: 0.281
AAGCCCAGAACAGAGACUUGAACACCAUGUCCUUAACCAAAGUCAGCUCUUCAGAGUGUAAAUGAGGGUCUGACUGGAAGCAGGGCAGCAGCUGUAAUUCUUCCAGCUCU: 0.312
UUUCCUUUCUCAAACCUACUCAAAUAAAAGGAUGAGGGUUAAGGGCAGGAAGUGGGAGGAUCUAAAAAUAGUUUUGAGAUUGUCUUUAAAAAUAAUAAAGAGUAGUUUCU: 0.43
UUUUGGCAAAUAAAGUAUUAUUCUCUAUCAUCAUCUUUUGAAUUCCUGUCCCUAGUAUGUUCUUUCAUGUUCUGGGUAAAAUUUCCAACCCUCAAAGAGUCUAAAACGUC: 0.778
UGUAGUCCACAUUUUAACACUCAGCAAACAUUCACACAUUCUAAGUUCAACAGGGCUCUUUGAUGACAGCUUUGGGAGGAUAAAUACGACUACGCACUUUAGAUAAGCCU: 0.539
CCUCAGAAUCCCUACAUCCUGCUUAGAACUGUGGCCGGCCUAAUCUGUCAAGAGGCUUGGCUCUUCAAGACUCAGUGUCCACUUUAUCAAAUGUGACCGGUGUAGCUGUA: 0.342
AUUUCCCACAGGAGUCCAUUGGGUUCAGCUUUGAAAGAGGAAUAGAAUCGAGGCUCCUUUGACCAUCAAAAUGAUGAACUUUACUUAUGUGGUACCCAAUGCCAGAAUGU: 0.391
CAAGGCCUGGUAAAGUCAGGCUCCUGGGAGUGGCAUUUCCUGUUUGACCUCUACCCAUCUCCCAGUUGUUUCACUUCCUCUUCCUGUUCCAGGAGCAGAGGUCUUAUUGG: 0.279

Other studies, line by line
CC(=O)O/N=C1\C(=O)N(Cc2cc(Cl)ccc2Cl)c2ccc(Cl)cc21
inhibition (Replicase polyprotein 1ab, main protease (rep, Severe acute respiratory syndrome coronavirus 2, UniProt P0DTD1); enzyme activity, inhibitor; 20 µM, hit confirmation, added: DTT): 54.1%

Repeated from above (series 4):
Brc1c(NC2=NCCN2)ccc2nccnc12.O=C(O)C(O)C(O)C(=O)O: 100%
O.O.O.O.O=C([O-])CC(O)(CC(=O)[O-])C(=O)[O-].[Li+].[Li+].[Li+]: 103%
CC(C)OC(=O)[C@H](C)N[P@](=O)(CO[C@H](C)Cn1cnc2c(N)ncnc21)Oc1ccccc1: 85%
O=C([O-])CN(CCN(CC(=O)[O-])CC(=O)O)CC(=O)[O-].[Na+].[Na+].[Na+]: 83.1%
